Published values pooled from the literature.
Protocols differ between the studies behind these lines.
Partner: itself
B1: CEACAM5 35-144 (Homo sapiens, UniProt P06731-1); sequence looked up; chain KLTIESTPFNVAEGKEVLLLVHNLPQHLFGYSWYKGERVDGNRQIIGYVIGTQQATPGPAYSGREIIYPNASLLIQNIIQNDTGFYTLHVIKSDLVNEEATGQFRVYPEL
B2: RBKS E154A (Homo sapiens, UniProt Q9H477); sequence looked up; chain MAASGEPQRQWQEEVAAVVVVGSCMTDLVSLTSRLPKTGETIHGHKFFIGFGGKGANQCVQAARLGAMTSMVCKVGKDSFGNDYIENLKQNDISTEFTYQTKDAATGTASIIVNNEGQNIIVIVAGANLLLNTEDLRAAANVISRAKVMVCQLAITPATSLEALTMARRSGVKTLFNPAPAIADLDPQFYTLSDVFCCNESEAEILTGLTVGSAADAGEAALVLLKRGCQVVIITLGAEGCVVLSQTEPEPKHIPTEKVKAVDTTGAGDSFVGALAFYLAYYPNLSLEDMLNRSNFIAAVSVQAAGTQSSYPYKKDLPLTLF
B3: swi6 (Schizosaccharomyces pombe, UniProt P40381); chain MKKGGVRSYRRSSTSKRSVIDDDSEPELPSMTKEAIASHKADSGSSDNEVESDHESKSSSKKLKENAKEEEGGEEEEEDEYVVEKVLKHRMARKGGGYEYLLKWEGYDDPSDNTWSSEADCSGCKQLIEAYWNEHGGRPEPSKRKRTARPKKPEAKEPSPKSRKTDEDKHDKDSNEKIEDVNEKTIKFADKSQEEFNENGPPSGQPNGHIESDNESKSPSQKESNESEDIQIAETPSNVTPKKKPSPEVPKLPDNRELTVKQVENYDSWEDLVSSIDTIERKDDGTLEIYLTWKNGAISHHPSTITNKKCPQKMLQFYESHLTFRENE
B4: cfbA 1-143 S11Y (Methanocaldococcus jannaschii, UniProt Q58380); chain MEALVLVGHGYRLPYSKELLVKLAEKVKERNLFPIVEIGLMEFSEPTIPQAVKKAIEQGAKRIIVVPVFLAHGIHTTRDIPRLLGLIEDNHEHHHEHSHHHHHHHHHEHEKLEIPEDVEIIYREPIGADDRIVDIIIDRAFGR
B5: PALB2 1-400 (Homo sapiens, UniProt Q86YC2); sequence looked up; chain MDEPPGKPLSCEEKEKLKEKLAFLKREYSKTLARLQRAQRAEKIKHSIKKTVEEQDCLSQQDLSPQLKHSEPKNKICVYDKLHIKTHLDEETGEKTSITLDVGPESFNPGDGPGGLPIQRTDDTQEHFPHRVSDPSGEQKQKLPSRRKKQQKRTFISQERDCVFGTDSLRLSGKRLKEQEEISSKNPARSPVTEIRTHLLSLKSELPDSPEPVTEINEDSVLIPPTAQPEKGVDTFLRRPNFTRATTVPLQTLSDSGSSQHLEHIPPKGSSELTTHDLKNIRFTSPVSLEAQGKKMTVSTDNLLVNKAISKSGQLPTSSNLEANISCSLNELTYNNLPANENQNLKEQNQTEKSLKSPSDTLDGRNENLQESEILSQPKSLSLEATSPLSAEKHSCTVPE
B6: HdeA mature (Escherichia coli, UniProt P0AES9); sequence looked up; chain ADAQKAADNKKPVNSWTCEDFLAVDESFQPTAVGFAEALNNKDKPEDAVLDVQGIATVTPAIVQACTQDKQANFKDKVKGEWDKIKKDM
B7: tnsC 1-503 A225V (Escherichia coli, UniProt P05846); sequence looked up; chain MSATRIQAVYRDTGVEAYRDNPFIEALPPLQESVNSAASLKSSLQLTSSDLQKSRVIRAHTICRIPDDYFQPLGTHLLLSERISVMIRGGYVGRNPKTGDLQKHLQNGYERVQTGELETFRFEEARSTAQSLLLIGCSGSGKTTSLHRILATYPQVIYHRELNVEQVVYLKIDCSHNGSLKEICLNFFRALDRALGSNYERRYGLKRHGIETMLALMSQIANAHVLGLLVIDEIQHLSRSRSGGSQEMLNFFVTMVNIIGVPVMLIGTPKAREIFEADLRSARRGAGFGAIFWDPIQQTQRGKPNQEWIAFTDNLWQLQLLQRKDALLSDEVRDVWYELSQGVMDIVVKLFVLAQLRALALGNERITAGLLRQVYQDELKPVHPMLEALRSGIPERIARYSDLVVPEIDKRLIQLQLDIAAIQEQTPEEKALQELDTEDQRHLYLMLKEDYDSSLLIPTIKKAFSQNPTMTRQKLLPLVLQWLMEGETVVSELEKPSKSKKVS
B8: tnsC 1-503 (Escherichia coli, UniProt P05846); sequence looked up; chain MSATRIQAVYRDTGVEAYRDNPFIEALPPLQESVNSAASLKSSLQLTSSDLQKSRVIRAHTICRIPDDYFQPLGTHLLLSERISVMIRGGYVGRNPKTGDLQKHLQNGYERVQTGELETFRFEEARSTAQSLLLIGCSGSGKTTSLHRILATYPQVIYHRELNVEQVVYLKIDCSHNGSLKEICLNFFRALDRALGSNYERRYGLKRHGIETMLALMSQIANAHALGLLVIDEIQHLSRSRSGGSQEMLNFFVTMVNIIGVPVMLIGTPKAREIFEADLRSARRGAGFGAIFWDPIQQTQRGKPNQEWIAFTDNLWQLQLLQRKDALLSDEVRDVWYELSQGVMDIVVKLFVLAQLRALALGNERITAGLLRQVYQDELKPVHPMLEALRSGIPERIARYSDLVVPEIDKRLIQLQLDIAAIQEQTPEEKALQELDTEDQRHLYLMLKEDYDSSLLIPTIKKAFSQNPTMTRQKLLPLVLQWLMEGETVVSELEKPSKSKKVS
B9: CRYBB2 (Homo sapiens, UniProt P43320); sequence looked up; chain MASDHQTQAGKPQSLNPKIIIFEQENFQGHSHELNGPCPNLKETGVEKAGSVLVQAGPWVGYEQANCKGEQFVFEKGEYPRWDSWTSSRRTDSLSSLRPIKVDSQEHKIILYENPNFTGKKMEIIDDDVPSFHAHGYQEKVSSVRVQSGTWVGYQYPGYRGLQYLLEKGDYKDSSDFGAPHPQVQSVRRIRDMQWHQRGAFHPSN
B10: tebp-1 167-282 (Caenorhabditis elegans, UniProt O62329); chain DVEISDSFEKAMWNHVSQNAARLTGKFLMTEQFWAELLQSQPNIPIKSAHIVLHHFNEMMLENLWKQAMDPDAKLQILKDLSVPLSYHQRKWILDNDRLDVALSLDGYVVSWDIVR
B11: dlg1 1-97 L14G/L15G/Y18G (Drosophila melanogaster, UniProt P31007); sequence looked up; chain MPVKKQEAHRALEGGEDGHARLSEPQDRALRIAIERVIRIFKSRLFQALLDIQEFYELTLLDDSKSIQQKTAETLQIATKWEKDGQAVKIADFIKSS
B12: ADAR1 127-end 127-1226 R892H (human, UniProt P55265); sequence looked up; chain SSHFQELSIYQDQEQRILKFLEELGEGKATTAHDLSGKLGTPKKEINRVLYSLAKKGKLQKEAGTPPLWKIAVSTQAWNQHSGVVRPDGHSQGAPNSDPSLEPEDRNSTSVSEDLLEPFIAVSAQAWNQHSGVVRPDSHSQGSPNSDPGLEPEDSNSTSALEDPLEFLDMAEIKEKICDYLFNVSDSSALNLAKNIGLTKARDINAVLIDMERQGDVYRQGTTPPIWHLTDKKRERMQIKRNTNSVPETAPAAIPETKRNAEFLTCNIPTSNASNNMVTTEKVENGQEPVIKLENRQEARPEPARLKPPVHYNGPSKAGYVDFENGQWATDDIPDDLNSIRAAPGEFRAIMEMPSFYSHGLPRCSPYKKLTECQLKNPISGLLEYAQFASQTCEFNMIEQSGPPHEPRFKFQVVINGREFPPAEAGSKKVAKQDAAMKAMTILLEEAKAKDSGKSEESSHYSTEKESEKTAESQTPTPSATSFFSGKSPVTTLLECMHKLGNSCEFRLLSKEGPAHEPKFQYCVAVGAQTFPSVSAPSKKVAKQMAAEEAMKALHGEATNSMASDNQPEGMISESLDNLESMMPNKVRKIGELVRYLNTNPVGGLLEYARSHGFAAEFKLVDQSGPPHEPKFVYQAKVGGRWFPAVCAHSKKQGKQEAADAALRVLIGENEKAERMGFTEVTPVTGASLRRTMLLLSRSPEAQPKTLPLTGSTFHDQIAMLSHRCFNTLTNSFQPSLLGRKILAAIIMKKDSEDMGVVVSLGTGNHCVKGDSLSLKGETVNDCHAEIISRRGFIRFLYSELMKYNSQTAKDSIFEPAKGGEKLQIKKTVSFHLYISTAPCGDGALFDKSCSDRAMESTESRHYPVFENPKQGKLRTKVENGEGTIPVESSDIVPTWDGIRLGERLRTMSCSDKILRWNVLGLQGALLTHFLQPIYLKSVTLGYLFSQGHLTRAICCRVTRDGSAFEDGLRHPFIVNHPKVGRVSIYDSKRQSGKTKETSVNWCLADGYDLEILDGTRGTVDGPRNELSRVSKKNIFLLFKKLCSFRYRRDLLRLSYGEAKKAARDYETAKNYFKKGLKDMGYGNWISKPQEEKNFYLCPV
B13: lacI 1-360 N125C (Escherichia coli, UniProt P03023); chain MKPVTLYDVAEYAGVSYQTVSRVVNQASHVSAKTREKVEAAMAELNYIPNRVAQQLAGKQSLLIGVATSSLALHAPSQIVAAIKSRADQLGASVVVSMVERSGVEACKAAVHNLLAQRVSGLIICYPLDDQDAIAVEAACTNVPALFLDVSDQTPINSIIFSHEDGTRLGVEHLVALGHQQIALLAGPLSSVSARLRLAGWHKYLTRNQIQPIAEREGDWSAMSGFQQTMQMLNEGIVPTAMLVANDQMALGAMRAITESGLRVGADISVVGYDDTEDSSCYIPPLTTIKQDFRLLGQTSVDRLLQLSQGQAVKGNQLLPVSLVKRKTTLAPNTQTASPRALADSLMQLARQVSRLESGQ
B14: tad1 1-493 (Ustilago maydis, UniProt A0A0U2UYC4); chain MAPALNANPTTKRDELSAPSASHKLGMSSMASRAAGGGLKLTGLPDLSDSAGTLSDIFGTPQMREIWSDQNRVACYLEIEAALAIVQADLGIIPKNAAHEIVEHCRVQEIDWALYKQKTELIGYPVLGIVQQLVANCKDGLGEYCHWGATTQDITDTATVMQIRQSLTLVKQRLDSIVSSLEHLAEQHRNVPMAARSNLKQAVPITFGFKMARFLATFRRHQQRLVELEKRVYTLEFGGAAGNLSSLGDQGIATHDALAKMLDLAPAEIAWHTEHDRFAEVGTFLGLLTGTLAKLATDIKLMSQTEVGEVGEPFISNRGSSSTMPQKNNPISCVYIHACAANVRQGAAALLDAMQSDHERGTGPWEIIWVQLPLMMNWTSAALNNADFVLRGLQVFPDAMQHNLDLSKGLIVSEAVMMGLGNTLGRQYAHDAVYECCRTAFVQDRPLLDVLLENHEIASKLDRTELEKLCDPANYLGQCSQWIDRVLSRPSSA
B15: amtB 26-428 (Escherichia coli, UniProt P69681); chain VADKADNAFMMICTALVLFMTIPGIALFYGGLIRGKNVLSMLTQVTVTFALVCILWVVYGYSLAFGEGNNFFGNINWLMLKNIELTAVMGSIYQYIHVAFQGSFACITVGLIVGALAERIRFSAVLIFVVVWLTLSYIPIAHMVWGGGLLASHGALDFAGGTVVHINAAIAGLVGAYLIGKRVGFGKEAFKPHNLPMVFTGTAILYIGWFGFNAGSAGTANEIAALAFVNTVVATAAAILGWIFGEWALRGKPSLLGACSGAIAGLVGVTPACGYIGVGGALIIGVVAGLAGLWGVTMLKRLLRVDDPCDVFGVHGVCGIVGCIMTGIFAASSLGGVGFAEGVTMGHQLLVQLESIAITIVWSGVVAFIGYKLADLTVGLRVPEEQEREGLDVNSHGENAYNA
Sequence of UniProt Q12154 (whole entry, looked up): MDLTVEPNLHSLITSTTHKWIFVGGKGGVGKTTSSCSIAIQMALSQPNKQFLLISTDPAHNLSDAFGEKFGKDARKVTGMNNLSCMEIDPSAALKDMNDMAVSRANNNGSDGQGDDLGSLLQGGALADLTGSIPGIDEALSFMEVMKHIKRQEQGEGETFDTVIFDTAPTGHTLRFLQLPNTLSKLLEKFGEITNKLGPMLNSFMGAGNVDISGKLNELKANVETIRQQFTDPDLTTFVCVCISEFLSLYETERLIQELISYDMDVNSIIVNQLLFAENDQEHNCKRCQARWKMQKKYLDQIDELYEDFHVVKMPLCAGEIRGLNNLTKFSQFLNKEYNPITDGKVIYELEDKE

B1 (CEACAM5 35-144)  subunits per oligomer (SEC): 2
GET3, NEM-alkylated cysteines (Saccharomyces cerevisiae, UniProt Q12154)  subunits per oligomer (SEC): > 4
B2 (RBKS E154A)  subunits per oligomer (mass photometry): 2
B3 (swi6)  subunits per oligomer (SEC-SAXS): 2
B4 (cfbA 1-143 S11Y)  subunits per oligomer (SEC): 2
B5 (PALB2 1-400)  subunits per oligomer (mass photometry): 2
B6 (HdeA mature)  subunits per oligomer (SEC-MALS): 2
B7 (tnsC 1-503 A225V)  subunits per oligomer (X-ray crystallography; added: ADP): 2
B8 (tnsC 1-503)  subunits per oligomer (dynamic light scattering; added: ATP): 2
B9 (CRYBB2)  subunits per oligomer (native MS; 11.5 µM, pH 7.5): 4
B10 (tebp-1 167-282)  subunits per oligomer (SEC-MALS): 2
B11 (dlg1 1-97 L14G/L15G/Y18G)  subunits per oligomer (AUC): 8
B12 (ADAR1 127-end 127-1226 R892H)  subunits per oligomer (SEC): 2
B13 (lacI 1-360 N125C)  subunits per oligomer (SEC): 4
B14 (tad1 1-493)  subunits per oligomer (SEC-MALS): 4
GGGEIWKLHEEFLKKFEELLKLHEERLKKM (designed peptide; N-acetyl, C-terminal amide)  subunits per oligomer (AUC; peptide): 3.4
B15 (amtB 26-428)  subunits per oligomer (native MS): 3

Some of these lines once more:
B13 (lacI 1-360 N125C)  subunits per oligomer (SEC): 4
B5 (PALB2 1-400)  subunits per oligomer (mass photometry): 2
GGGEIWKLHEEFLKKFEELLKLHEERLKKM (designed peptide; N-acetyl, C-terminal amide)  subunits per oligomer (AUC; peptide): 3.4
